Measurements collected from several papers.
Compare with care: the assays were run in different laboratories.
Cell line: HUVEC

`CNC(=O)c1c(C)oc2cc(Oc3ncnc4cc(OC)c(OCCCCCCC(=O)NO)cc34)ccc12` gave a tubule length of 53% (tube formation; 10 µM, 72 h; baseline: control).
With `CC(C)(C)c1cc2c(O)c(c1)Cc1cc(C(C)(C)C)cc(c1OCC(=O)Nc1ccccn1)Cc1cc(C(C)(C)C)cc(c1O)Cc1cc(C(C)(C)C)cc(c1OCC(=O)Nc1ccccn1)COC2` the inhibition was 31% (cell growth or viability, MTT; 15 µM, 72 h).
`CC[C@@H](C)[C@H]1NC(=O)[C@@H]([C@H](C)O)NC(=O)[C@@H](Cc2c[nH]cn2)NC(=O)CNC(=O)[C@@H](CCCNC(=N)N)NC(=O)CNC(=O)[C@@H](Cc2ccccc2)NC1=O` — result for “transendothelial electrical resistance”: “no effect” (100 nM, without VEGF).
`CC[C@H](NC(=O)[C@H](Cc1ccccc1)NC(=O)[C@H](CCSC)NC(=O)[C@H](Cc1ccccc1)NC(=O)[C@@H]1CCCN1C(=O)[C@H](CCSC)NC(=O)[C@@H](NC(=O)[C@H](CO)NC(=O)[C@H](Cc1ccccc1)NC(=O)[C@H](CCCNC(=N)N)NC(=O)[C@H](CCCNC(=N)N)NC(=O)[C@@H](N)CC(C)C)[C@@H](C)O)C(=O)N[C@@H](CC(N)=O)C(=O)N[C@H](C(=O)N[C@@H](CC(N)=O)C(=O)N[C@H](C(N)=O)C(C)C)[C@@H](C)CC` gave a migration inhibition of 18% (real-time impedance; concentration not given).
For `O=Cc1c(O)ccc2ccccc12`, “log2 fold change” read -4.24 (RNA sequencing, item: PPP1R16B; 75 µM, 24 h; baseline: DMSO).
`CC(C)(C)c1cc2c(O)c(c1)Cc1cc(C(C)(C)C)cc(c1OCC(=O)NCc1cccnc1)Cc1cc(C(C)(C)C)cc(c1O)Cc1cc(C(C)(C)C)cc(c1OCC(=O)NCc1cccnc1)COC2` has an inhibition of 33% (cell growth or viability, MTT; 15 µM, 72 h).
With `COc1ccc2cc3[n+](cc2c1OCc1cn(Cc2ccc(F)cc2Br)nn1)CCc1cc2c(cc1-3)OCO2` the IC50 was 18.8 µM (cell growth or viability, MTT).
With `Cc1ccc(C(C)C)cc1.O=C(N=P(c1ccccc1)(c1ccccc1)c1ccccc1)c1ccccn1.[Cl-].[Cl][Ru+]` the IC10 was 1.2 µM.
The IC50 of `COc1ccc2cc3[n+](cc2c1OCc1cn(Cc2ccc(Cl)cc2Cl)nn1)CCc1cc2c(cc1-3)OCO2` is reported as 66 µM (cell growth or viability, MTT).
With `CC(=O)N[C@@H](CCCCN)C(=O)N[C@@H](Cc1c[nH]c2ccccc12)C(=O)N[C@@H](Cc1ccccc1)C(=O)N[C@@H](CCC(=O)O)C(=O)N[C@H](C(=O)N[C@@H](Cc1c[nH]c2ccccc12)C(=O)N[C@@H](Cc1ccccc1)C(=O)N[C@H](C(=O)N[C@@H](CCC(=O)O)C(=O)N[C@@H](Cc1c[nH]c2ccccc12)C(=O)N1CCC[C@H]1C(=O)N[C@@H](CCCCN)C(=O)N[C@@H](CCCCN)C(=O)N[C@@H](CCCNC(=N)N)C(=O)N[C@@H](CCCCN)C(=O)NCCS)[C@@H](C)O)[C@@H](C)O` the IC50 ratio was 15 fold (cyclin B1 protein, western blot; antisense delivery; baseline: Lipofectamine over compound).
For `COc1ccc2cc3[n+](cc2c1OCc1cn(Cc2c(Cl)cccc2Cl)nn1)CCc1cc2c(cc1-3)OCO2`, the IC50 was 20.9 µM (cell growth or viability, MTT).
`CC(C)(C)c1cc2c(O)c(c1)Cc1cc(C(C)(C)C)cc(c1OCC(=O)Nc1nccs1)Cc1cc(C(C)(C)C)cc(c1O)Cc1cc(C(C)(C)C)cc(c1OCC(=O)Nc1nccs1)COC2` gave an inhibition of 43% (cell growth or viability, MTT; 15 µM, 72 h).
`COc1ccc2cc3[n+](cc2c1OCc1cn(Cc2ccc(C#N)cc2)nn1)CCc1cc2c(cc1-3)OCO2` has an IC50 of 47.3 µM (cell growth or viability, MTT).
For `CC(C)(C)c1cc2c(O)c(c1)Cc1cc(C(C)(C)C)cc(c1OCC(=O)Nc1ccncc1)Cc1cc(C(C)(C)C)cc(c1O)Cc1cc(C(C)(C)C)cc(c1OCC(=O)Nc1ccncc1)COC2`, the inhibition was 24% (cell growth or viability, MTT; 15 µM, 72 h).
`COc1cccc(Cn2cc(COc3c(OC)ccc4cc5[n+](cc34)CCc3cc4c(cc3-5)OCO4)nn2)c1` gave an IC50 of 61.7 µM (cell growth or viability, MTT).
`CC(C)(C)c1cc2c(O)c(c1)Cc1cc(C(C)(C)C)cc(c1OCC(=O)NCc1ccccn1)Cc1cc(C(C)(C)C)cc(c1O)Cc1cc(C(C)(C)C)cc(c1OCC(=O)NCc1ccccn1)COC2` gave an inhibition of 16% (cell growth or viability, MTT; 15 µM, 72 h).

A few entries again:
With `CC(=O)N[C@@H](CCCCN)C(=O)N[C@@H](Cc1c[nH]c2ccccc12)C(=O)N[C@@H](Cc1ccccc1)C(=O)N[C@@H](CCC(=O)O)C(=O)N[C@H](C(=O)N[C@@H](Cc1c[nH]c2ccccc12)C(=O)N[C@@H](Cc1ccccc1)C(=O)N[C@H](C(=O)N[C@@H](CCC(=O)O)C(=O)N[C@@H](Cc1c[nH]c2ccccc12)C(=O)N1CCC[C@H]1C(=O)N[C@@H](CCCCN)C(=O)N[C@@H](CCCCN)C(=O)N[C@@H](CCCNC(=N)N)C(=O)N[C@@H](CCCCN)C(=O)NCCS)[C@@H](C)O)[C@@H](C)O` the IC50 ratio was 15 fold (cyclin B1 protein, western blot; antisense delivery; baseline: Lipofectamine over compound).
For `COc1ccc2cc3[n+](cc2c1OCc1cn(Cc2c(Cl)cccc2Cl)nn1)CCc1cc2c(cc1-3)OCO2`, the IC50 was 20.9 µM (cell growth or viability, MTT).
